Assay results collected from several papers.
Numbered parts are unrelated; each lists some results of a single study.

Study 1 — technique: protein-binding microarray; molecule type: double-stranded DNA, one strand shown; sample: in vitro; concentration: 250 nM; notes: 60-bp whole probe; together with: salmon DNA 0.4 mg/ml; baseline: random background probes; direction: higher = stronger binding; constant ends, left off below: GCCTAGCAC … GTCTTGATTCGCTTGACGCTGCTG
Target: Interferon regulatory factor 5, full length, phosphomimetic (IRF5, Homo sapiens, UniProt Q13568-2, residues 1-514, K96S/S451D/S453D/S456D/S462D)
`CTTTCTCTGCTCTTTTCAACAGTGCTA` gave a log fluorescence of 2.12 z-score.
`TTAGGTCTTCTTTTCCTTTAGTGCTAG` gave a log fluorescence of 0.501 z-score.
The log fluorescence of `TTAGGTTTCCTTCTCCTCTAGTGCTAG` is reported as 0.998 z-score.
`TTAGGTTTCCTTTTCCTTGAGTGCTAG` gave a log fluorescence of 1.52 z-score.
With `TTCCAAATGCCCTCTCCATACGTGCTA` the log fluorescence was 0.0516 z-score.

Study 2 — technique: RNA Bind-n-Seq; molecule type: RNA; sample: in vitro; concentration: 200 nM; notes: whole 134-nt RNA, ends assumed; together with: 150 mM KCl; baseline: input library; direction: higher = stronger binding
Target: Fragile X messenger ribonucleoprotein 1, C-terminal low-complexity region (Fmr1, Mus musculus, UniProt P35922)
With `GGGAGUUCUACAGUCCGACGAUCAGUCCUGUGCUACACAUCGUAUGUACCGAAUCGGGGCCCCCGGCCCCCGGCCCCCGGAAAGUAUUAUGUUACGCCGUUCGGAUCUGCACUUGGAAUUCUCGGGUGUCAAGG` the log2 enrichment was -0.665.
`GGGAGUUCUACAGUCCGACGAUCCUCAAGUCCUGUGCUACACAUCGUAUGUACCGAAUCGGGGAAGGGAAGGAAGGGAAAGUAUUAUGUUACGCCGUUCGGAUCUGCACUUCCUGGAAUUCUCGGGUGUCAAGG` gave a log2 enrichment of 0.192.
For `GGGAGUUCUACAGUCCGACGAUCUGGGGACAAGCUGACAGCAGCCAUGGCGAGCGGCAGUGGAGACAGCGUCACCCGUCGGAGCGUGGCAUCACAGUUUUUCACUCAAGAGGAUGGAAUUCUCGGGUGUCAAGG`, the log2 enrichment was -1.42.
`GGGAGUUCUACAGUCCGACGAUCAGUCCUGUGCUACACAUCGUAUGUACCGAAUCGGGGAAAGGGGAAAGGGGAAAGGGGAAAGUAUUAUGUUACGCCGUUCGGAUCUGCACUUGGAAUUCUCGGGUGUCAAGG` gave a log2 enrichment of 0.285.
With `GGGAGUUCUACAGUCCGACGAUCCCUCAAGUCCUGUGCUACACAUCGUAUGUACCGAAUCGGAAGGAAGGGAAGGAAAGUAUUAUGUUACGCCGUUCGGAUCUGCACUUCCAGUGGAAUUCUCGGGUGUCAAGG` the log2 enrichment was 0.275.
For `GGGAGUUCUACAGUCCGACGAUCGCAGGAAGUAAAAACAAAUGGAAAUGCUUCGGAUAGUGAAAGGGGUGGGGGUUGCUAAGGAAAGGGUGGGAUGGGAGUGGGUAAAGAGUUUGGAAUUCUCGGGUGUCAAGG`, the log2 enrichment was 0.286.

Study 3 — technique: universal PBM; molecule type: double-stranded DNA, one strand shown; sample: in vitro; concentration: 600 nM; direction: higher = stronger binding
Target: Sal-like protein 4, full length isoform A (SALL4, Homo sapiens, UniProt Q9UJQ4, residues 1-1053)
UniProt Q9UJQ4, sequence (whole entry, looked up): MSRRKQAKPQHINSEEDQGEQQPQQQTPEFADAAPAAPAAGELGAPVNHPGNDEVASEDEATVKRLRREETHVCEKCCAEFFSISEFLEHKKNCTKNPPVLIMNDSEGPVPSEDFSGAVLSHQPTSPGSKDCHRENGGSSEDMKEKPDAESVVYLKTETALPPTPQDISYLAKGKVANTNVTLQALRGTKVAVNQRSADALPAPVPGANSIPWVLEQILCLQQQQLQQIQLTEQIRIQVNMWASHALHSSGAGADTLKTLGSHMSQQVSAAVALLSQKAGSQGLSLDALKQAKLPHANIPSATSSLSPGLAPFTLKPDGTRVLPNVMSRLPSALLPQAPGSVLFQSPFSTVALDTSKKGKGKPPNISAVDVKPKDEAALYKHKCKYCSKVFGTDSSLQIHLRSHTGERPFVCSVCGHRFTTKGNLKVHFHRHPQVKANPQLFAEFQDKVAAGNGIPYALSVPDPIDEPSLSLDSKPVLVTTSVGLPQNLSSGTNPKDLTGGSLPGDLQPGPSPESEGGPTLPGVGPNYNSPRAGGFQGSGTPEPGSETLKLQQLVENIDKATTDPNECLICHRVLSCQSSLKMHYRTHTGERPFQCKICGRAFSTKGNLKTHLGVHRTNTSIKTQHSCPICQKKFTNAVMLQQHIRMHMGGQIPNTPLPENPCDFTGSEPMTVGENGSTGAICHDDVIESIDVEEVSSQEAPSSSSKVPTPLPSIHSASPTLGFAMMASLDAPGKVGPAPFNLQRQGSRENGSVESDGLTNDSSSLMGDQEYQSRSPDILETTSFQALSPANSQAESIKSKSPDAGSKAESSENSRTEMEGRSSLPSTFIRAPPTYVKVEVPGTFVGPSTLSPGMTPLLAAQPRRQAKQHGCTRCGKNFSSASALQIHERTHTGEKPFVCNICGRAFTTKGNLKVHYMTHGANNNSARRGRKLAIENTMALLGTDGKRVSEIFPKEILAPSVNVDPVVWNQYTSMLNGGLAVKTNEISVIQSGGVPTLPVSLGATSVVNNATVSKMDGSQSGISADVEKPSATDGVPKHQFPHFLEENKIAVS
Notes: 8-mer, flanks averaged, mean of replicates
The E-score of `ACCGTGGA` is reported as -0.218.
For `CGTAACCC`, the E-score was -0.207.
`CATATGGG` gave an E-score of -0.0104.
`GCCCGTGA` has an E-score of -0.259.
`AGAGGCCC` gave an E-score of -0.363.
With `TCGTTTCA` the E-score was 0.144.

Single results of other studies
`PhoQ, residues 284 288 289 292 302 303 TNSAEL` has a fold induction of 0.378 (PhoP, residues 12 14 15 18 19 STWGI (Escherichia coli, UniProt P23836); Sort-seq, measured: YFP reporter; E. coli; PhoQ-PhoP variant library, together with: 10 µM Mg2+; baseline: high Mg2+ state, higher = stronger signaling).
